Measured values of several laboratories.
Compare with care: the assays were run in different laboratories. Numbers after ± are the reported error.
plsY3: Glycerol-3-phosphate acyltransferase 3 (plsY3, Bacillus anthracis, UniProt Q81Y92)
Chain of UniProt Q81Y92 (whole entry, looked up): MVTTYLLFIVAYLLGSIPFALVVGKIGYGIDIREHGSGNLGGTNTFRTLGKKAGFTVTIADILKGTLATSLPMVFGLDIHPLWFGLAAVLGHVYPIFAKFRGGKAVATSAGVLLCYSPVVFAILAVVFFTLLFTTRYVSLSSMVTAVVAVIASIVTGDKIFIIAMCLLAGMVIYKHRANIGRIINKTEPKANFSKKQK
rep main protease: Replicase polyprotein 1ab, main protease (rep, Severe acute respiratory syndrome coronavirus 2, UniProt P0DTD1)
Chain of UniProt Q9BYF1 (whole entry, looked up): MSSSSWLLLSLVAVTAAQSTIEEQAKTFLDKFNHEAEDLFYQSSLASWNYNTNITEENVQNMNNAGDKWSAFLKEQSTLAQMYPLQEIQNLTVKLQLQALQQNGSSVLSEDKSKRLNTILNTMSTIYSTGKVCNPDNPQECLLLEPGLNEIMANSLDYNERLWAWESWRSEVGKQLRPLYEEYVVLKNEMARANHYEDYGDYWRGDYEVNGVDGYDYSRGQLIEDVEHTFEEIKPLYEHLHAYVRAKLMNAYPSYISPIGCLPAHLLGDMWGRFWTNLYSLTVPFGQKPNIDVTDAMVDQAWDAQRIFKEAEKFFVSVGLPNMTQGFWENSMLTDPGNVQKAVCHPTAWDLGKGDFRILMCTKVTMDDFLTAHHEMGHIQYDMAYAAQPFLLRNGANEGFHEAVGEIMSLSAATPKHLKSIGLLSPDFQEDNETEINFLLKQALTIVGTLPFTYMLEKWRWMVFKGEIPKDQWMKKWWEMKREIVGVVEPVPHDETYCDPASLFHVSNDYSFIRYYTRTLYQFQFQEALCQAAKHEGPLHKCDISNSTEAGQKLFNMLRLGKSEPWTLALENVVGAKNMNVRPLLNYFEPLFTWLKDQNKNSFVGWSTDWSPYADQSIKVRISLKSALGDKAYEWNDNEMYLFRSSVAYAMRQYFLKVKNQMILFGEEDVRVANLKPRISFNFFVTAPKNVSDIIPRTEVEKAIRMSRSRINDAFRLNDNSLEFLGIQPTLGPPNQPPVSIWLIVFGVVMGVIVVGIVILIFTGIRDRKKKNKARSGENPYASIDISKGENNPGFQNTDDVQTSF
Chain of UniProt P08684 (whole entry, looked up): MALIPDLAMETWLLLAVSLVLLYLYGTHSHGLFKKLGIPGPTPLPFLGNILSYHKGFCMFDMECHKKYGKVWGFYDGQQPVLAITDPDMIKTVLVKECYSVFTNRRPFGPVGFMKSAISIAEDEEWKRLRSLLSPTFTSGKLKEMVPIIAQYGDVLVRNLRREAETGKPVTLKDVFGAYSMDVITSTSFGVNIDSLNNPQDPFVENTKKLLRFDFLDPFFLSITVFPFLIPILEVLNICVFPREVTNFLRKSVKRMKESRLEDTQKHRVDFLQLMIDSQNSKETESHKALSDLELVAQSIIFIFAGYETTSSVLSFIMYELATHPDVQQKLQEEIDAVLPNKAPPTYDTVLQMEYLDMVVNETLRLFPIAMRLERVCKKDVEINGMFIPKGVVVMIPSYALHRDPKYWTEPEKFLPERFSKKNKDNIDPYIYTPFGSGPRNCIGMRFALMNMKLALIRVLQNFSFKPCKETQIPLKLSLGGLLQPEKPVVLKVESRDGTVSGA

| SMILES | tested on | test | system | setting | how to read | endpoint | value |
| --- | --- | --- | --- | --- | --- | --- | --- |
| O=C(Nc1cccnn1)N1CCC(=Cc2cccc(Oc3ccc(C(F)(F)F)cn3)c2)CC1 | strychnine-sensitive glycine receptor, rat | binding | – | 50 µM, together with: [3H]strychnine | – | inhibition | 8% |
| COc1ccc(OS(=O)(=O)NC(=O)CCCCc2ccccc2)cc1 | plsY3 | inhibitor | – | 200 µM | – | inhibition | 13% |
| CN(CCN1CCC(OC(=O)Nc2ccccc2-c2ccccc2)CC1)C(=O)c1ccc(CN2CCC(C(N)=O)CC2)cc1 | rat sodium channel site 2 | radioligand binding | – | 1 µM, together with: [3H]batrachotoxinin 10 nM | – | inhibition | 12% |
| Cc1ccccc1C1(C(=O)NC[C@H](NC(=O)Cn2cncn2)c2ccc3ccccc3c2)CC1 | rep main protease | enzyme activity, inhibitor | – | 5 µM, run 1 | – | inhibition | 6.1% |
| O=C1N=C(N2CCCCN2)S/C1=C\c1ccc(F)cc1O | rat sodium channel site 2 | radioligand binding | rat cerebral cortex | 10 µM, together with: [3H]batrachotoxinin | – | inhibition | 14% |
| C#Cc1cncc(C(=O)N2CCC3(CC2)CN(C(=O)[C@H]2CCC[C@@H]2O)Cc2ccccc2O3)c1 | rep main protease | enzyme activity, inhibitor | – | 5 µM, run 1 | – | inhibition | 9.3% |
| Nc1ncnc2c([C@@H]3N[C@H](CO)[C@@H](O)[C@H]3O)c[nH]c12 | Zaire ebolavirus | viral replication, inhibitor | human Macrophage | 50 µM | – | inhibition | 82.9% |
| CC(C)(C)[C@H](NC(=O)C(F)(F)F)C(=O)N1C[C@H]2[C@@H]([C@H]1C(=O)N[C@H](C#N)C[C@@H]1CCNC1=O)C2(C)C | – | – | human, plasma | oral, 500 mg single dose | – | half-life | 18.5 h |
| Cc1cc(=O)[nH]cc1C(=O)N1C[C@@]23CCCC[C@@]2(CN(C(=O)C[C@H]2NC(=O)NC2=O)C3)C1 | rep main protease | enzyme activity, inhibitor | – | 5 µM | – | inhibition | 9.7% |
| CNC(=O)[C@@H](NC(=O)[C@H](CC(C)C)[C@H](O)C(=O)NO)C(C)(C)C | human fibrinogen | SDS-PAGE | Daboia russelii | concentration not given, unit not given, together with: RJ venom | relative to: untreated fibrinogen | remaining fibrinogen Bβ chain | 0.836 |
| Cc1c(-c2ccnn2C)cc(C(=O)NCc2ccc(S(C)(=O)=O)cn2)c(=O)n1-c1cccc(C(F)(F)F)c1 | rep main protease | reporter gene (Gaussia luciferase), inhibitor | – | 20 µM | – | inhibition | 0.55% |
| Cn1cnc(Cn2c(=O)[nH]/c(=N\c3cc4cn(C)nc4cc3Cl)n(Cc3cc(F)c(F)cc3F)c2=O)n1 | Cytochrome P450 3A4 (CYP3A4, Homo sapiens, UniProt P08684) | inhibitor | human liver microsomes | 30 min preincubation, preincubation without NADPH, together with: testosterone 60 µM | – | IC50 | > 100 µM |
| Nc1ncnc2c1ncn2[C@H]1C[C@H](O)[C@@H](COP(=O)(O)OP(=O)(O)OP(=O)(O)O)O1 | Gag-Pol polyprotein, reverse transcriptase (gag-pol, Human immunodeficiency virus type 1 group M subtype B, UniProt P04585, K653R) | substrate | – | K66R mutant, together with: G:A mismatched primer template | – | kcat | 0.0498 ± 0.0125 s⁻¹ |
| CC[C@H](C)[C@H](NC(=O)[C@H](CC(C)C)NC(=O)[C@H](Cc1c[nH]c2ccccc12)NC(=O)[C@H](CCC(N)=O)NC(=O)[C@@H](NC(=O)[C@H](Cc1ccccc1)NC(=O)[C@H](C)NC(=O)[C@H](CCCCNC(=O)COCCOCCNC(=O)COCCOCCNC(=O)CC[C@H](NC(=O)CCCCCCCCCCCCCCCCCCC(=O)O)C(=O)O)NC(=O)[C@H](CCC(N)=O)NC(=O)[C@H](C)NC(=O)[C@@H](NC(=O)[C@H](CCCCN)NC(=O)[C@H](CC(=O)O)NC(=O)[C@H](CC(C)C)NC(=O)C(C)(C)NC(=O)[C@@H](NC(=O)[C@H](CO)NC(=O)[C@H](Cc1ccc(O)cc1)NC(=O)[C@H](CC(=O)O)NC(=O)[C@H](CO)NC(=O)[C@@H](NC(=O)[C@H](Cc1ccccc1)NC(=O)[C@@H](NC(=O)CNC(=O)[C@H](CCC(=O)O)NC(=O)C(C)(C)NC(=O)[C@@H](N)Cc1ccc(O)cc1)[C@@H](C)O)[C@@H](C)O)[C@@H](C)CC)[C@@H](C)CC)C(C)C)C(=O)N[C@@H](C)C(=O)NCC(=O)NCC(=O)N1CCC[C@H]1C(=O)N[C@@H](CO)C(=O)N[C@@H](CO)C(=O)NCC(=O)N[C@@H](C)C(=O)N1CCC[C@H]1C(=O)N1CCC[C@H]1C(=O)N1CCC[C@H]1C(=O)N[C@@H](CO)C(N)=O | – | – | healthy subjects, single ascending dose | 5.0 mg, titre increase ≥4-fold | – | treatment-boosted ADA positive subjects | 0% |
| O=C(CCCCc1ccccc1)CP(=O)(O)O | plsY3 | inhibitor | – | 200 µM | – | inhibition | 0% |
| Cc1cc(N[C@H]2C[C@H]3CC[C@@H]2N(C(=O)c2cnc4[nH]ccc4c2)C3)nc(-c2cccnc2)n1 | rep main protease | enzyme activity, inhibitor | – | 5 µM, run 1 | – | inhibition | 12.9% |
| CC(C)[C@H](N)C(=O)N1CCC[C@H]1B(O)O.CS(=O)(=O)O | rep main protease | reporter gene (mKate2), inhibitor | – | 20 µM | – | inhibition | -0.347% |
| Cc1nn(C)c2ncc(C(=O)N3CC4(CCOCC4)C[C@H]3CNC(=O)c3cccnc3)cc12 | rep main protease | enzyme activity, inhibitor | – | 5 µM, run 2 | – | inhibition | 13.1% |
| CCCNC(=O)[C@H]1O[C@@H]1C(=O)N[C@H](C(=O)N1CCC[C@H]1C(=O)OC)[C@@H](C)CC | rep main protease | reporter gene (mKate2), inhibitor | – | 20 µM | – | inhibition | -0.884% |
| Cn1cnc(Cn2c(=O)[nH]/c(=N\c3cc4cn(C)nc4cc3Cl)n(Cc3cc(F)c(F)cc3F)c2=O)n1 | – | – | human, normal renal function | oral, 375 mg | – | treatment-related TEAE, Mild severity | 0% |
| CCS(=O)(=O)c1ncc(Cl)c(C(=O)N(Cc2ccc(Cl)cc2)Cc2ccco2)n1 | rep main protease | viral replication, Gluc reporter | SARS-CoV-2 | 20 µM | – | inhibition | -0.0541% |
| CC(=O)NCCc1c(C(O)c2ccc(Cl)cc2)[nH]c2ccccc12 (stereo not drawn) | Angiotensin-converting enzyme 2, with SARS-CoV-2 spike RBD (ACE2, Homo sapiens, UniProt Q9BYF1) | RBD binding, TR-FRET | – | 100 µM, together with: RBD-d2 5 nM | – | inhibition | 20 to 30% |
| O=C(/C=C/c1ccccc1)c1ccc(O)cc1 | rep main protease | reporter gene (mKate2), inhibitor | – | 20 µM | – | inhibition | 0.326% |
| CCc1c(C(=O)C(N)=O)c2c(OCC(=O)O)cccc2n1Cc1ccccc1 | C2C12 | – | – | 1 µM, together with: KA venom | relative to: venom alone | viability difference | 5.09% |
